Measured values pooled from the literature.
Each line is one published result; not all experiments were run side by side. ± marks the error that the study gave.

| SMILES | test | test system | setting | how to read | quantity | value |
| --- | --- | --- | --- | --- | --- | --- |
| COc1ccc2c(C(=O)c3cc(OC)c(OC)c(OC)c3)c(-c3ccc(OC)c(OCc4ccc([N+](=O)[O-])s4)c3)[nH]c2c1 | non-enzymatic, no POR | phosphate buffer | 24 h, pH 7.4 | – | parent drug release | 0% |
| COc1cc(C(=O)O)cc(OC)c1O | – | human CSF | concentration not given, mean | – | CSF concentration | not detected |
| CCc1cc(C(=O)NC)c2nccc(N3CCc4c(cc(Cn5ccnc5)cc4-c4cn(C)nc4C(F)(F)F)C3=O)c2c1 | – | Sprague Dawley rats | oral, 100 mg/kg twice daily, 7 days | baseline: vehicle | blood CK change | -20.1% |
| NC(N)=NCCC[C@@H](N)C(=O)N[C@@H](CCCN=C(N)N)C(=O)N1CCC[C@H]1C(=O)N1C[C@H](O)C[C@H]1C(=O)NCC(=O)N[C@@H](Cc1cccs1)C(=O)N[C@@H](CO)C(=O)N1Cc2ccccc2C[C@@H]1C(=O)N1[C@H](C(=O)N[C@@H](CCCN=C(N)N)C(=O)O)C[C@@H]2CCCC[C@@H]21 | popPK base model typical value | human | subcutaneous, dose not given, reference weight 70 kg | – | peripheral volume (Vp/F) | 1.75 L |
| CNC(=O)c1ccc(-c2cnc3ncc(Cc4ccc5ncccc5c4)n3n2)cc1F | – | cancer patients | oral, dose not given, all grades dose escalation | – | AST increased incidence | 24% |
| C=CC(=O)NC1CCN(c2ncc3ncnc(Nc4ccc(Oc5ccc6c(c5)ncn6C)c(C)c4)c3n2)CC1 | – | healthy male volunteers, plasma | oral, 60 mg, 14C-labelled solution, geometric mean | – | AUC(0-tz) | 14.1 µM·h |
| O=Cc1ccc(O)cc1 | – | human CSF | concentration not given, mean | – | CSF concentration | not detected |
| CC(C)(C)c1ccc(O)c(CN(Cc2cc(C(C)(C)C)ccc2O)C2CCC(NC(N)=O)CC2)c1 (centres unmarked) | – | C57BL/6 mice, male, plasma | intraperitoneal, 10 mg/kg, single dose | – | terminal elimination rate constant | 7.78e-05 s⁻¹ |
| CCN1/C(=C/C(C)=O)Sc2ccc(F)cc21 | – | cynomolgus monkey | oral, 10 mg/kg, 4 h post-dose | baseline: pre-dose | QTc interval change | 100 ± 1% |
| CNc1ccc(-c2nc3ccc(O)cc3s2)cc1 [carbon-11 labelled] | ex vivo biodistribution | APP/PS1 mouse, AD model, liver | intravenous, 30 min | – | SUV | 3.15 ± 1.16 |
| CC#CC(=O)N[C@H]1CCCN(c2c(F)cc(C(N)=O)c3[nH]c(C)c(C)c23)C1 | – | healthy volunteers | oral, 1 mg once daily, 14 days, MAD phase I | – | adverse events | 83.3% |
| CCC(=O)N(CCC(c1ccc2c(c1)OCO2)c1ccccc1OC)Cc1ccccc1 (centres unmarked) | – | female athymic nude mouse, blood | i.p., 60 mg/kg twice daily, 14 days, group mean | – | MCHC | 33.8 g/dL |
| N#Cc1ccc2c(c1)[C@H]1CCCN(C(=O)c3ccc4[nH]cnc4c3)[C@H]1C2 | – | human females | 10 mg, day 15 | – | total testosterone level | 0.9 nmol/L |
| [18F]c1ccc(-c2ccc3c(c2)[nH]c2ccncc23)cn1 | ex vivo biodistribution | APP/PS1 mouse, AD model, skin | intravenous, 30 min | – | SUV | 0.174 ± 0.042 |
| O=C(O)CNC(=O)c1cccc(O)c1 | – | human CSF | concentration not given, mean | – | CSF concentration | not detected |
| Cc1cc(NC2CCN(C(=O)OC3CCN(C(=O)/C=C/CN(C)C)C3)CC2)n2ncc(C(C)C)c2n1 (centres unmarked) | Phase I dose escalation CTCAE v4.0, measured: peripheral oedema | patients with advanced solid tumours | dose not given, TIW dosing grade 3 or higher | – | patients with adverse event | 0% |
| CC(=O)N[C@H]1[C@H]([C@H](O)[C@H](O)CO)OC(C(=O)O)=C[C@@H]1N=C(N)N | HPLC | HBSS | 5 µg/mL, time not given, three freeze-thaw cycles | – | recovery | 97.4% |
| O=C(O)CCc1ccc(O)c(O[C@@H]2O[C@H](C(=O)O)[C@@H](O)[C@H](O)[C@H]2O)c1 | – | human CSF | concentration not given, mean | – | CSF concentration | not detected |
| O=C(NCc1ccc(CNCCOCCO)cc1)c1csc2nc[nH]c(=O)c12 | haemolysis | human red blood cells | 1 h, 37 °C | – | EC50 | > 100 µM |

| SMILES | test | test system | setting | how to read | quantity | value |
| --- | --- | --- | --- | --- | --- | --- |
| Cc1cc(-c2nccc3c2ccn3CC(=O)Nc2ccc(-c3cnccn3)cn2)ccn1 | – | human | SAD part, single 40 mg dose | – | subjects with Dizziness TEAEs | 16.7% |
| C[C@@H](O)CCOC(=O)C[C@@H](C)O | – | human | oral drink, dose not given, 90 min post dose, mean | – | systolic blood pressure | 112 mmHg |
| CCn1cc(C(=O)N2CCOCC2)c(=O)c2cc(NC3Cc4ccccc4C3)cnc21 | – | human male, fed, plasma | oral, 900 mg twice daily, day 7, tablet, arithmetic mean | – | Cmax | 6690 ng/mL |
| COc1cc(Nc2ncc3c(n2)-c2ccc(Cl)cc2C(c2c(F)cccc2OC)=NC3)ccc1C(=O)O | – | patients | oral, dose not given, grade 1, any attribution, with: pembrolizumab | – | decreased neutrophil count incidence | 25% |
| CNCc1ccc(-c2[nH]c3cc(F)cc4c3c2CCNC4=O)cc1 | – | patients | oral, 240 mg twice daily, all grades | – | anaemia incidence | 0% |
| CCOc1c([C@H](C)n2nc(C)c3c(N)ncnc32)cc(Cl)c(F)c1[C@@H]1CNC(=O)C1 | measured: QTcF ≤450 ms | previously treated B-cell malignancy | oral, 15 mg once daily, overall population | – | ECG observations | 86.7% |
| COC(=O)N[C@H](C(=O)N[C@@H](Cc1ccccc1)[C@@H](O)CN(Cc1ccc(-c2ccccn2)cc1)NC(=O)[C@@H](NC(=O)OC)C(C)(C)C)C(C)(C)C | modified PAMPA Franz cell | phosphate buffer with HPMCAS | 3 h, 500 rpm, 460 nm particles, with: no BSA | – | plateau flux concentration | 146 µg/mL |
| CC1(C)S[C@@H]2[C@H](NC(=O)[C@H](N)c3ccc(O)cc3)C(=O)N2[C@H]1C(=O)O | – | male Hartley guinea pigs, anaesthetized | intravenous, 3 mg/kg group, baseline before infusion | – | heart rate | 220 ± 0.4 beats/min |
| CC(=O)N(C)[C@H]1CCN(C(=O)c2cnc3c(c2)C[C@](C)(c2ccc(F)cc2)N3)C1 | – | healthy male subjects, multiple rising dose | oral, 15 mg once daily | – | adverse events of special interest | 0% |
| CNCCOC12CC3(C)CC(C)(CC(Cn4ncc(-c5ccc(N6CCc7cccc(C(=O)Nc8nc9ccccc9s8)c7C6)nc5C(=O)O)c4C)(C3)C1)C2 | – | beagle dog, male, anaesthetised | intravenous bolus, 0.03 mg/kg, 150 min | baseline: baseline | mean arterial pressure change | -15% |
| CO[C@@H]1[C@H](OC(=O)N2CC(CCN3CCOCC3)C2)CC[C@]2(CO2)[C@H]1[C@@]1(C)O[C@@H]1CC=C(C)C | – | humans | subcutaneous, 1.8 mg twice weekly for 4 weeks, day 28 | baseline: baseline | systolic blood pressure | -0.7 ± 15.9 mmHg |
| CC(C)C[C@H](NC(=O)[C@@H](Cc1c[nH]c2ccccc12)NC(=O)[C@H](Cc1ccc(O)cc1)NC(=O)[C@H](CO)NC(=O)[C@H](Cc1c[nH]c2ccccc12)NC(=O)[C@H](Cc1c[nH]cn1)NC(=O)[C@@H]1CCC(=O)N1)C(=O)N[C@@H](CCCNC(=N)N)C(=O)N1CCC[C@H]1C(=O)NCC(N)=O | – | Chinese CPP boys | intramuscular, 22.5 mg, 12 months, day 1, month 6 | – | patients, drug-related Obesity TEAEs | 0% |
| C[C@@H](Nc1cc(F)cc(F)c1)c1cc(C(=O)N(C)C)cc2c(=O)cc(N3CCOCC3)oc12 | measured: confusional state | patients with advanced solid tumours | oral, dose not given, dose finding phase I | – | treatment-related serious adverse events | 0% |
| CCCCCCCC(=O)c1c(OC)cc(OC)cc1C(=O)OC | – | mouse | intraperitoneal, 10 mg/kg | baseline: negative control | organ weight | no effect |
| Cn1cc(Nc2nccc(-c3ccc4c(c3)CN(C3COC3)CC[C@H]4NC(=O)c3cn(C(C)(C)C)nn3)n2)cn1 | – | human, whole blood | 300 mg twice daily, day 7 | baseline: pre-dose baseline | non-switched memory B cell change | 49.6% |
| Cc1noc(C)c1Cn1cc(N2C(=O)CN(Cc3cccc(O)c3)C2=O)cn1 | – | human liver microsomes | 10 µM, 10 min, pH 7.4 | – | parent remaining | 119% |
| CO[C@H]1/C=C/O[C@@]2(C)Oc3c(C)c(O)c4c(O)c(c(/C=N/N5CCN(C)CC5)c(O)c4c3C2=O)NC(=O)/C(C)=C\C=C\[C@H](C)[C@H](O)[C@@H](C)[C@@H](O)[C@@H](C)[C@H](OC(C)=O)[C@@H]1C | – | healthy human volunteers | oral, 600 mg, itraconazole cohort, with: gepotidacin 1500 mg | – | incidence of any adverse event | 24% |
| O=C(O)CCC(=O)O.[2H]C([2H])([2H])Oc1cc(C)c2[nH]ccc2c1CN1CC[C@@H](C2CC2)C[C@H]1c1ccc(C(=O)O)cc1 | – | human, plasma | 50 mg twice daily, day 1, multiple ascending dose, geometric mean | – | AUC(0-tau) | 9770 ng·h/mL |
| Cc1cc(C)c(CNC(=O)c2cc(Cl)c3c(c2C)O[C@@](C)([C@H]2CC[C@H](N(C)C)CC2)O3)c(=O)[nH]1 | – | relapsed/refractory NHL patients | oral, 200 mg once daily, onset after cycle 1 day 1 | – | adverse event Dyspnea | 16.7% |

| SMILES | test | test system | setting | how to read | quantity | value |
| --- | --- | --- | --- | --- | --- | --- |
| CCCCC1=NC2(CCCC2)C(=O)N1Cc1ccc(-c2ccccc2S(=O)(=O)Nc2noc(C)c2C)c(COCC)c1 | – | healthy adult volunteers, plasma | oral, 800 mg, single dose, fed, crushed tablet | – | AUC(0-inf) | 177000 ng·h/mL |
| O=c1c2ccccc2oc2ccccc12 | – | tricaprin-tricaprylin mixture | 75 °C, tricaprin fraction 1.00 | – | solubility | 0.052 mole fraction |
| COc1cc2nccc(Oc3ccc(NC(=O)c4cc5c(n(-c6ccccc6)c4=O)CCCC5=O)nc3)c2cc1OC | – | human, relapsed/refractory AML | oral, 3 mg once daily, grade ≥3, any causality | – | patients with Klebsiella bacteraemia | 20% |
| CNC(=O)c1ccc(-c2cnc3ncc(Cc4ccc5ncccc5c4)n3n2)cc1F | – | Japanese patients | oral, 400 mg, grade 3/4 | – | Lymphopenia dose reduction/interruption | 1% |
| COc1c(N2C[C@@H]3CCCN[C@@H]3C2)c(F)cc2c(=O)c(C(=O)O)cn(C3CC3)c12 | – | male Hartley guinea pigs, anaesthetized | intravenous, 10 mg/kg over 10 min, after infusion | – | heart rate | 198 ± 1.8 beats/min |
| CN(C(=O)n1cnc(-c2cccnc2)c1)C1CCCCC1 | – | Wistar rat, cerebral cortex | oral, 10 mg/kg, 24 h, single dose | – | tissue concentration | 8.8 ± 0.1 ng/g |
| N#Cc1ccc2c(c1)[C@H]1CCCN(C(=O)c3ccc4[nH]cnc4c3)[C@H]1C2 | – | human, plasma | oral, 20 mg once daily, steady state | – | AUC(tau) steady state | 21.2 µM·h |
| OC[C@H]1O[C@@H](c2ccc(Cl)c(Cc3ccc(O[C@H]4CCOC4)cc3)c2)[C@H](O)[C@@H](O)[C@@H]1O | – | Japanese type 1 diabetes patients, blood | 25 mg, day 28 | baseline: baseline | change in eGFR | -0.52 mL/min/1.73 m² |
| CC(C)NCC(O)c1ccc(NS(C)(=O)=O)cc1 (racemic) | – | male Hartley guinea pigs, anaesthetized | intravenous, 10 mg/kg group, baseline before infusion | – | heart rate | 233 ± 0.3 beats/min |
| CCO[C@H]1CCN(Cc2c(OC)cc(C)c3[nH]ccc23)[C@H](c2ccc(C(=O)O)cc2)C1 | – | human mild hepatic impairment, plasma | oral, 200 mg single dose, mean | – | unbound AUC0–12 | 4940 ng·h/mL |
| CC(C)(C(=O)N1CCOc2c(C#N)cncc2C1)C(F)F | measured: tandem gait test abnormal | human, both sexes | oral, 20 mg twice daily, 14 days, multiple ascending dose | – | subjects with TEAE | 12.5% |
| CCO[C@H]1CCN(Cc2c(OC)cc(C)c3[nH]ccc23)[C@H](c2ccc(C(=O)O)cc2)C1 | – | PNH patients, active haemolysis | oral, 50 mg, 4 weeks, treatment | – | incidence of back pain | 0% |
| O=C1c2ccncc2C(=O)c2c1[nH]c1ccccc21 | – | Sprague-Dawley rat, female, lung | oral, 1 mg/kg, 24 h | – | tissue concentration | 0.003 ± 0.003 nmol/mg |
| CC[C@@H]1CN(C(=O)NCC(F)(F)F)C[C@@H]1c1cnc2cnc3[nH]ccc3n12 | population PK model | healthy, RA and CD subjects, plasma | oral, immediate-release formulation | – | Q/F | 3.39 L/h |
| FC(F)(F)c1ccc(CNc2ccc(Cc3c[nH]c4ncc(Cl)cc34)cn2)cn1 | measured: Headache | patients with advanced solid tumours, non-TGCT cohort | oral, 1000 mg/day, any grade | – | treatment-related adverse events | 2% |
| CC(=O)Oc1ccccc1C(=O)O | – | male Hartley guinea pigs, anaesthetized | intravenous, 1 mg/kg group, baseline before infusion | – | heart rate | 247 ± 0.1 beats/min |
| Cl.[2H]C([2H])([2H])CC(=O)c1cnc(NC(=O)C2CC2)cc1Nc1cccc(-c2ncn(C([2H])([2H])[2H])n2)c1OC | geometric mean | human | oral, 25 mg single dose, fasted, liquid | – | AUC(0-inf) | 2140 ng·h/mL |
| C[C@H]1CNCCCN1S(=O)(=O)c1cccc2cncc(F)c12 | measured: Diarrhea | healthy adult men | topical ocular, 1 drop per eye twice daily, 8 days | – | adverse events | 0% |
